Earlier results, collected from citations in different studies.
Protocols differ between the studies behind these lines. ± gives the spread as reported.

The IC50 of `CCN1CCN(Cc2cnc(Nc3cc(-c4cc(F)c5nc(C)n(C(C)C)c5c4)ccn3)cn2)CC1` is reported as 11200 nM (CDK4/6; kinase activity, inhibitor).
`C[C@@H]1NC(=O)[C@@H]2CSSC[C@H](NC(=O)[C@H](CC(=O)O)NC(=O)[C@H](CC(=O)O)NC(=O)CNC(=O)[C@H](CC(=O)O)NC(=O)[C@H](Cc3ccc(O)cc3)NC1=O)C(=O)N[C@@H](CCCCN)C(=O)N[C@@H](CO)C(=O)N[C@@H](C)C(=O)N1CCC[C@H]1C(=O)N1CCC[C@H]1C(=O)N[C@@H](CO)C(=O)N2` has an IC50 of 37 nM (CD2-CD58 interaction; cell adhesion, inhibitor).
The IC50 of `COc1cc(Nc2ccnc3cc(F)cc(F)c23)cc(OC)c1OC` is reported as 140 nM (GAK).
For `O=C1Cc2c([nH]c3ccc(Br)cc23)-c2ccccc2N1CC1CCCCC1`, the IC50 was 0.6 nM (CDK4/6).
For `CCC(C)NC(=O)CSc1nnc(Nc2ccc(C(C)C)cc2)s1` (stereo not shown), the half-life was over 100 min (human plasma).
`CCC[C@@H]([C@@H](CC(C)C)C(=O)N[C@@H](CCCCNC(=O)OCc1ccccc1)C(=O)Nc1nccs1)N(O)C=O` has an IC50 of 8 nM (recombinant ADAM17; enzyme activity, inhibitor).
With `N#Cc1ccc(S(=O)(=O)NC[C@H]2OC(O)[C@H](NC(=O)c3cccc(-c4ccccc4)c3)[C@@H](O)[C@@H]2O)cc1` (stereo partly shown) the IC50 was 7.9 nM (hexokinase-1, human; enzyme activity, inhibitor).
`CN(C)Cc1cn(Cc2ccc(C(=O)NO)cc2)c2ccccc12` gave an IC50 of 5 nM (human HDAC10; inhibitor).
`Cc1ccc(F)c(C(=O)n2nc(Nc3ccc(S(N)(=O)=O)cc3)nc2N)c1F` has an IC50 of 2 nM (CDK4/6; kinase activity, inhibitor).
`C/C=C/Cn1c(Cc2cc(OC)c(OC)c(OC)c2)nc2c(N)ncnc21` gave an IC50 of 111000 ± 9700 nM (Grp94; binding, fluorescence polarization competition).

For quick reference, copied from above:
`Cc1ccc(F)c(C(=O)n2nc(Nc3ccc(S(N)(=O)=O)cc3)nc2N)c1F` has an IC50 of 2 nM (CDK4/6; kinase activity, inhibitor).
